Assay results of several laboratories.
Numbered parts are unrelated; each lists some results of a single study. Positions count from the first letter of the parent shown.

Study 1
Target: RING finger protein unkempt homolog, zinc fingers 1-6, GST-SBP tag (UNK, Homo sapiens, UniProt Q9C0B0, residues 30-357)
Method: RNA Bind-n-Seq
Form: RNA
Sample: in vitro
Tested at: not given
Setting: RNA with constant flanks, human and mouse sites, ends assumed
Relative to: input RNA pool
Reading: higher = stronger binding
Shared flanks, not repeated: GGGAGUUCUACAGUCCGACGAUC … CAACAGAGGAUUGAGCAUCA
Residues (chain): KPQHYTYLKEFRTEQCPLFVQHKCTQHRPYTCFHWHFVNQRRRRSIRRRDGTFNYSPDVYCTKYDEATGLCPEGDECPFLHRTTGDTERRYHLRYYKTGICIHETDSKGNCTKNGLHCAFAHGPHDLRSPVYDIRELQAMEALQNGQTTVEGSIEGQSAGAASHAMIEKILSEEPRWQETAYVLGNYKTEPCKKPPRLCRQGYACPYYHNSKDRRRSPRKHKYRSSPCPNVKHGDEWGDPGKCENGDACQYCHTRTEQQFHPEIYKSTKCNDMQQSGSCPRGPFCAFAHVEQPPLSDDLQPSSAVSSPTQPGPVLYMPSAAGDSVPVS
Strand	bound/input enrichment [ratio]
GUUAAUGAAGUUGUGGCAGGGAUAAAAGAAUACUUCAACGUAAUGUUGGGUACCCAGCUACUCUAUAAAUUUGAGAGACCACAGUAUGCUGAAAUUCUUGCAGAUCAUCCCGAUGCACCC	0.179
GCAAGAGAUGAUGAGGCAGCUGCAGUUGCACUUUCCUCCCUGAUUCAUGCUUUGGAUGACUUAGACAUGGUGGCCAUAGUUCGAUAUGCUUAUGACAAAAGAGCUAAUCCUCAAGUCGGC	1.7
CAAAUGAAUCAUGCCUGUAUGCUGUUUGUAGAAAAUUAUGGACAGAAAAUAAUUAAGAAGAAUUUAUGUCGAAACUUCAUGCUUCAUCUAGUCAGCAUGCAUGACUUUAAUCUUAUUAGC	0.781
UGCCUAUCUGAAAACUUUGGGCUCUUUCUUGUUUCUUUCCCAAAAUUCAGAAGUUAAUGGGCUUUUAUGUUUUUCUAUAUUUUUUUUAUUUCAAUGAUUUGGCCUGUCUAUGUUAGGCUA	23
UUAAAUUCUUCACCCCCAUCCCCUUUUUUUGUGCUAAUUAGCAUCUCAGGGCAAUGCCUCAAAAAUGUUUGAUGUGUUCUGUUCUUUGGAGGGAAAAAGUUCUUAUGUGAUGAUAAUAUA	0.873
CUAACGAACUUUACACUCCUGAUGCCAGCAGUAUCCGUUGGAAAUGUUGGCCAGCUUGCAAUAGAUCUGAUUAUUUCUACACUGAACAUGUGUAAGAUUGGUUAUUUCUAUACUGAUUGC	0.0631
CAAUUAUAUGAAUAGCAGAAGGUCCAUUUGACUCUUGUAGUUCAAGAGCUGUUUCUAAGUAAACAGACUUUCCAGAGCUCGAUGAAGUGAAGAAGCCCUUCUUUCAAUUCCUGGGCAGAA	0.141
ACAGCAUUCAUAGUAGAAAGAGACUUUGGUGGAGUCACUAAUGGGAAACCCGAAGAUAAAUUAGGCAUUCGGGGCUCCAACACUUGUGAAGUCCAUUUUGAAAACACCAAGAUACCUGUG	0.702

Study 2
Target: CEBPB, bZIP domain (human)
Method: DHFR protein complementation
Sample: yeast
Setting: single substitutions, most at no-binding floor
Relative to: wild-type JUN-FOS pair
Reading: higher = stronger binding
Starting sequence: JUN, bZIP domain (human); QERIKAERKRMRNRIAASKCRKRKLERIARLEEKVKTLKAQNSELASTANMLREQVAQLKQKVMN; partner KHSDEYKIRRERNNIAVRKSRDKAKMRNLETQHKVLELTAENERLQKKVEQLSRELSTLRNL
Substitution	binding fitness [natural log]
A46S	-1.32
E32P	-1.55
L31G	-1.49
V56Q	-1.47
E54W	-1.4
A40S	-1.45
E44F	-1.42
S43D	-1.23
A46I	-1.37
L38F	-1.49
A57G	-1.38
L38Q	-1.43
E54N	-1.41
A57W	-1.47
L31N	-1.33
L31E	-1.45

Study 3
Target: ABI1, truncated, D143A, DHFR fusion (Arabidopsis thaliana)
Method: DHFR PCA, deep sequencing
Sample: yeast
Setting: methotrexate growth selection, single substitutions
With: (+)-ABA 0.0091 µM
Relative to: wild-type fitted maximum
Reading: higher = stronger binding
Starting sequence: PYL1, truncated, DHFR fusion (Arabidopsis thaliana); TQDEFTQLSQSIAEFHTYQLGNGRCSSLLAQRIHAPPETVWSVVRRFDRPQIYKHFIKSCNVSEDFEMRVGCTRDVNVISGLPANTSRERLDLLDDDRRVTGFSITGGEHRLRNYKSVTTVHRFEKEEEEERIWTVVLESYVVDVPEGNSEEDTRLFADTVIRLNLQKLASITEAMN; partner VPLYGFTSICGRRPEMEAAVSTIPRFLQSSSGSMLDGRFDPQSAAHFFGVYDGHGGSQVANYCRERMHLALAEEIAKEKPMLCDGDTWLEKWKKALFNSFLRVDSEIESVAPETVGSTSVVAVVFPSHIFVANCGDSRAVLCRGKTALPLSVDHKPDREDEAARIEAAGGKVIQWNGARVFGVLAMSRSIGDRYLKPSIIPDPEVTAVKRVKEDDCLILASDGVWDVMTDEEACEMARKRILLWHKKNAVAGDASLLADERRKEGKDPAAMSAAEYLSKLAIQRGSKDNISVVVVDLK
Substitution	relative binding score [%]
N22W	25.9
R74T	-1.81
E67C	11
E127G	31.8
G81R	-0.461
E131V	28.3
D153P	-1.58
P83W	4.98
K116L	0.485
L93G	-7.07
R24K	48.4
S9N	28.4
K126G	59.9
L94C	7.59

Study 4
Target: Transcriptional repressor CTCF (CTCF, Homo sapiens, UniProt P49711, residues 1-727, full length assumed)
Sequence of UniProt P49711 (whole entry, looked up): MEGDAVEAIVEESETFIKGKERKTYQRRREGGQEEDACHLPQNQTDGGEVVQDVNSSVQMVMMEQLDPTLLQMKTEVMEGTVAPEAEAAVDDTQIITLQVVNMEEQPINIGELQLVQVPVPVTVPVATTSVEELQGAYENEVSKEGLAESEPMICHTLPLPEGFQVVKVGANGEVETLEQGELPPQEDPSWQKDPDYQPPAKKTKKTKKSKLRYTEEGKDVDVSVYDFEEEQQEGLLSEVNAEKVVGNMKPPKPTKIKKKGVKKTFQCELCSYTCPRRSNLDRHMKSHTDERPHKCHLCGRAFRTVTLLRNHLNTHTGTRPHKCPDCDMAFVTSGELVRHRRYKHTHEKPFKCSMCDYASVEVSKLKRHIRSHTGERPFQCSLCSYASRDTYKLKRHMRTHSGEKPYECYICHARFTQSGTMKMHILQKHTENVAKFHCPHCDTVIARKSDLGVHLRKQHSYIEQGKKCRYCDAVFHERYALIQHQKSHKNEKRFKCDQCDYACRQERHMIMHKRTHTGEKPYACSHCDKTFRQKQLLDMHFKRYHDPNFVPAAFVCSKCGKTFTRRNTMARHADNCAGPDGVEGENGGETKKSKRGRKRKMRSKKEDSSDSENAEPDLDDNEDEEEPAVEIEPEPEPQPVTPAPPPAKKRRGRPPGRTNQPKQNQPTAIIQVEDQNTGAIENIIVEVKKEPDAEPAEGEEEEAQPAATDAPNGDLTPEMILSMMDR
Method: protein-binding microarray
Form: double-stranded DNA, one strand shown
Sample: in vitro
Tested at: not given
Setting: k-mer, scored over probes, only values ≥0.25
Reading: higher = stronger binding
Strand	E-score
ATAAATTC	0.289
CCACTAGG	0.473
ATGAGAAT	0.265
ATTCATAA	0.321
ACATACAT	0.313
TGTTATAA	0.378
CATAGCGC	0.286
ATGTTGTG	0.297
ATTAATTA	0.278
ATAACAAT	0.261
TAATCGTA	0.273
AGAGGGCG	0.289
ATATAAAT	0.355
ATGATAAC	0.275
ACGTTATG	0.273
GTATAATA	0.38
ATTATCTA	0.259

Study 5
Target: CCNB3, cyclin fold, Cln2 fusion (human)
Method: yeast growth competition, sequencing
Sample: yeast
Setting: weak parent motif
Relative to: not given
Reading: higher = stronger binding
Starting sequence: RB1 docking peptide (human); PKPLKKLRFDIEG; partner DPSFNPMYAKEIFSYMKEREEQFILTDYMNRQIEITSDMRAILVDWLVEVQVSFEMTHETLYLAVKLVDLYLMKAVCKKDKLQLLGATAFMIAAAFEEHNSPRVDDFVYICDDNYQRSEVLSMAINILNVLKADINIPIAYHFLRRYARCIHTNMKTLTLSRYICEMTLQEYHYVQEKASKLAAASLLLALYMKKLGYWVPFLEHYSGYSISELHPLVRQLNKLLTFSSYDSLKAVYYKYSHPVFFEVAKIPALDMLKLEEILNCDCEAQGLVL
Substitution	normalised enrichment score
L4D	0.745
R8M	0.236
K6H	0.103
K6A	0.445
I11L	0.737
D10M	0.534
L7S	0.555
K5A L7A	0.203
K5F	0.549
R8K	-0.0101
P3S	0.613
P1F	0.812
L7M	-0.229

A few entries again (study 2):
Substitution	binding fitness [natural log]
S43D	-1.23
A46I	-1.37
L38F	-1.49
A57G	-1.38
L38Q	-1.43
E54N	-1.41
A57W	-1.47
L31N	-1.33
